{"data": "Assay results pooled from the literature", "note": "Numbered parts are unrelated; each lists some results of a single study. Positions count from the first letter of the parent shown.", "sequence of UniProt O75385 (whole entry, looked up)": "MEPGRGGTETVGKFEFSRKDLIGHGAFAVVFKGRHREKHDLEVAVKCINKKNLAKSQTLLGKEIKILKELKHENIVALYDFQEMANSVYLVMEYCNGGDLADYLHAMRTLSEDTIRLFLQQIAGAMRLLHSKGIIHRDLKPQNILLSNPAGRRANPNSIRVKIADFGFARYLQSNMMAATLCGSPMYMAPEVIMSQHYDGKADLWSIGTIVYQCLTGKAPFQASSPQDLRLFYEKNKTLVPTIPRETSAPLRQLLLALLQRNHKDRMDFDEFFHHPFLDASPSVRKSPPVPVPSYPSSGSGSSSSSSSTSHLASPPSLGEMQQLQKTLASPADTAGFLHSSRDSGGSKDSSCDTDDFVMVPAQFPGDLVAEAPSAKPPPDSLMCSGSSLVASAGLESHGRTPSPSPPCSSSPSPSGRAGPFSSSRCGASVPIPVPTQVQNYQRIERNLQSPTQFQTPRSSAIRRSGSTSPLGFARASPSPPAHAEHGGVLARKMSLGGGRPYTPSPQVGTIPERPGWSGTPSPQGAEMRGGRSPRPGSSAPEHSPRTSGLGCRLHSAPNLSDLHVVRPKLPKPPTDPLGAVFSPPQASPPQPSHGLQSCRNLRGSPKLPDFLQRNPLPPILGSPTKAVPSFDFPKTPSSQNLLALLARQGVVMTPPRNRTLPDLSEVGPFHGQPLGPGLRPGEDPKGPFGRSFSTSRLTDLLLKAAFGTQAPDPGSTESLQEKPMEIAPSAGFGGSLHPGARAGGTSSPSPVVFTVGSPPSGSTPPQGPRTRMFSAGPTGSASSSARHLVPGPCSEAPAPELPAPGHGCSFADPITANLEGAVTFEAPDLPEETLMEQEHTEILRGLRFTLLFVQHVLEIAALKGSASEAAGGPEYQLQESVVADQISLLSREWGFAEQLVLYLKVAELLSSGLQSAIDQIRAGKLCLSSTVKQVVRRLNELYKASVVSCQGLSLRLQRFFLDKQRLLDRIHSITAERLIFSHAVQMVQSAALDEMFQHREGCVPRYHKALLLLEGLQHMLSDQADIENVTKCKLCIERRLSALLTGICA", "sequence of UniProt O95835 (whole entry, looked up)": "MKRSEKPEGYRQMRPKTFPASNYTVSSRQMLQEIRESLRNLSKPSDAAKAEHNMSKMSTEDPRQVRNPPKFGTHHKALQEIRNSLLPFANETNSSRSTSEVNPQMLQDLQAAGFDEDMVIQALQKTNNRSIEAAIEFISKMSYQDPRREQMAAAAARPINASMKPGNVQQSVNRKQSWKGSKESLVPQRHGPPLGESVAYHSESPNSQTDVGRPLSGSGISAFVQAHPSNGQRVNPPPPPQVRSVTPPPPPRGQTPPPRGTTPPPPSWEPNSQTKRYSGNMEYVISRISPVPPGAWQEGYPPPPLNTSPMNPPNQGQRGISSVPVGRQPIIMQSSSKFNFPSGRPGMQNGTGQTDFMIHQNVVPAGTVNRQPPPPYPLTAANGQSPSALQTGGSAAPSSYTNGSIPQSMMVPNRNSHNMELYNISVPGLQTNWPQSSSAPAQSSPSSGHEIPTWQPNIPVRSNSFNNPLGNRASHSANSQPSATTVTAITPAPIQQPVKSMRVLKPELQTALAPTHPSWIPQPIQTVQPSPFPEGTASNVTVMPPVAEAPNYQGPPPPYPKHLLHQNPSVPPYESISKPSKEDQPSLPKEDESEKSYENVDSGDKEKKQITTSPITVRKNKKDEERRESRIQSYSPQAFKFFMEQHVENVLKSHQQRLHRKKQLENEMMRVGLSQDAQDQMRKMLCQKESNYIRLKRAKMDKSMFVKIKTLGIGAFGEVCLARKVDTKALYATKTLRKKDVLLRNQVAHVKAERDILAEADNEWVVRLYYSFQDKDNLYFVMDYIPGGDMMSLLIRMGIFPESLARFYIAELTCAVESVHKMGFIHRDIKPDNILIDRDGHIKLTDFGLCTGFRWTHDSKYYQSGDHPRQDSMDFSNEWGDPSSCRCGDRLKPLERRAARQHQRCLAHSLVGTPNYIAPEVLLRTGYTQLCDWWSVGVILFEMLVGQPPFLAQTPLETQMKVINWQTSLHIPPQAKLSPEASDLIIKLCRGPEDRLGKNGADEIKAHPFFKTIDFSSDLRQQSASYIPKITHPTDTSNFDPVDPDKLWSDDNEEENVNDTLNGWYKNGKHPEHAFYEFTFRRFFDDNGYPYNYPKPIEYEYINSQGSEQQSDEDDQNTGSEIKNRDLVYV", "sequence of UniProt O94768 (whole entry, looked up)": "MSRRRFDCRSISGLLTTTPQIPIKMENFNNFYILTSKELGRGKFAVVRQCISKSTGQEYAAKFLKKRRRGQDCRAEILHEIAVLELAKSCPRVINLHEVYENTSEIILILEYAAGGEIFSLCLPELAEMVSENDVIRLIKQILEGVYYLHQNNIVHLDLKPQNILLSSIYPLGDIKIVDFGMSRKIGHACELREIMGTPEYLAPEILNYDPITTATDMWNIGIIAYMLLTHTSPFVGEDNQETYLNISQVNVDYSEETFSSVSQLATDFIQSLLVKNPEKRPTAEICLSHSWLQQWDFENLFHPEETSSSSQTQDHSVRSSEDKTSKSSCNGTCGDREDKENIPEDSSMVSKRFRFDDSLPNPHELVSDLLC", "sequence of UniProt P25098 (whole entry, looked up)": "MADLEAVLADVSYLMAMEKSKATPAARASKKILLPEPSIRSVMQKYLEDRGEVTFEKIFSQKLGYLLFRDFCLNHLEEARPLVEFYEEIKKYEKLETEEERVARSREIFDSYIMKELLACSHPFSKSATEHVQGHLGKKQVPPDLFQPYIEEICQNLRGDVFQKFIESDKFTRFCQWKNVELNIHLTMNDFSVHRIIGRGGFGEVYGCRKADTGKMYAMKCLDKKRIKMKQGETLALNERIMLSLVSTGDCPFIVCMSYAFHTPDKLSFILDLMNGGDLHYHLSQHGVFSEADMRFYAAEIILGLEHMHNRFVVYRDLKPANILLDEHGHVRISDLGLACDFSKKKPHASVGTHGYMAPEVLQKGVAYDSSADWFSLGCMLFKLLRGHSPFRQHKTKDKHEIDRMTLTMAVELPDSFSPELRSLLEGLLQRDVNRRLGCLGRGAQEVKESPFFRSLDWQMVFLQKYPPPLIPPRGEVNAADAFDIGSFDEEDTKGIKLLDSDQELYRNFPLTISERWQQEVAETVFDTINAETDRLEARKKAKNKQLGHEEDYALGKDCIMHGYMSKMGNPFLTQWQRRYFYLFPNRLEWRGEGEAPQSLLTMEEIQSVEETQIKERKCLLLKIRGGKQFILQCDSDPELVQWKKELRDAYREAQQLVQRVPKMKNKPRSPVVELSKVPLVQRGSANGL", "sequence of UniProt Q9UPZ9 (whole entry, looked up)": "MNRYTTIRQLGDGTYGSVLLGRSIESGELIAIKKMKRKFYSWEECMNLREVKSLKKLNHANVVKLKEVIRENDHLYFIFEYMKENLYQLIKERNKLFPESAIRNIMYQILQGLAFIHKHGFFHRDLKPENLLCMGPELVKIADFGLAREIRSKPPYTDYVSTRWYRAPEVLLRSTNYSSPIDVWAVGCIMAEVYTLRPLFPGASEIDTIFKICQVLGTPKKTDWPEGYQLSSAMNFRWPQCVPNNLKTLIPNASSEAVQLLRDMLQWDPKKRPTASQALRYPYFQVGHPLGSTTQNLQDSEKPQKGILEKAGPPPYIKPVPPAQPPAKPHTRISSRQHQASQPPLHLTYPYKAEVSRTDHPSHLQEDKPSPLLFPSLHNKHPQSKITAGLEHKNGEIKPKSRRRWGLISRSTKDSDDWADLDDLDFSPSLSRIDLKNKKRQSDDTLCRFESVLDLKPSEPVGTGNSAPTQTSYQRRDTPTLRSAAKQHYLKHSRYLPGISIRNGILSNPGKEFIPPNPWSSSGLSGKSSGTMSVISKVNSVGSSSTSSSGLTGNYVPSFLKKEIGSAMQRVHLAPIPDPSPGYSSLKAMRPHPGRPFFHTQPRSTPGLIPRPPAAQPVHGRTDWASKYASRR", "sequence of UniProt P45983 (whole entry, looked up)": "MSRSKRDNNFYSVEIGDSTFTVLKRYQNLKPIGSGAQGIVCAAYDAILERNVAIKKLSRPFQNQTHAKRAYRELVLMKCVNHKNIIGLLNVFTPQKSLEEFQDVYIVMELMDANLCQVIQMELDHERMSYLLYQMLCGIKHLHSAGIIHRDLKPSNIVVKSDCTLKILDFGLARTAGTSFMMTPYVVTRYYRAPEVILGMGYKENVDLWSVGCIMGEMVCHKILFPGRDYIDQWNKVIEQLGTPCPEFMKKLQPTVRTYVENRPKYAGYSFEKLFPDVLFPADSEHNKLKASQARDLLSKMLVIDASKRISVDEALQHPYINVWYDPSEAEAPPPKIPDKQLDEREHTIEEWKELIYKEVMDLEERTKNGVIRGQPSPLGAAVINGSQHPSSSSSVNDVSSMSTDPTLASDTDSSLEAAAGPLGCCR"}
{"data": "Series 1", "Structure (SMILES)": "Cn1cncc1[C@@](O)(COc1ccc(C#N)cc1-c1ccc(OC(F)(F)F)cc1)c1ccc(C#N)cc1", "technique": "competition with immobilised ligand", "concentration": "1 µM"}
{"target": "NTRK2 (Homo sapiens, UniProt Q16620)", "effect on": "cell-free assay", "remaining binding [%]": 88}
{"target": "TNK1 (Homo sapiens, UniProt Q13470)", "effect on": "cell-free assay", "remaining binding [%]": 88}
{"target": "Tyrosine-protein kinase ABL1, non-phosphorylated (ABL1, Homo sapiens, UniProt P00519, H396P)", "effect on": "cell-free assay", "remaining binding [%]": 88}
{"target": "RET (Homo sapiens, UniProt P07949, V804M)", "effect on": "cell-free assay", "remaining binding [%]": 98}
{"target": "CDC42BPA (Homo sapiens, UniProt Q5VT25)", "effect on": "cell-free assay", "remaining binding [%]": 81}
{"target": "GRK2 (Homo sapiens, UniProt P25098)", "effect on": "cell-free assay", "remaining binding [%]": 95}
{"target": "MAPK8 (Homo sapiens, UniProt P45983)", "effect on": "cell-free assay", "remaining binding [%]": 77}
{"target": "Tyrosine-protein kinase ABL1, non-phosphorylated (ABL1, Homo sapiens, UniProt P00519)", "effect on": "cell-free assay", "remaining binding [%]": 95}
{"target": "ULK1 (Homo sapiens, UniProt O75385)", "effect on": "cell-free assay", "remaining binding [%]": 95}
{"target": "STK17B (Homo sapiens, UniProt O94768)", "effect on": "cell-free assay", "remaining binding [%]": 84}
{"target": "CILK1 (Homo sapiens, UniProt Q9UPZ9)", "effect on": "binding", "remaining binding [%]": 75}
{"target": "LATS1 (Homo sapiens, UniProt O95835)", "effect on": "cell-free assay", "remaining binding [%]": 100}
{"target": "PRPF4B (Homo sapiens, UniProt Q13523)", "effect on": "cell-free assay", "remaining binding [%]": 100}
{"target": "Ribosomal protein S6 kinase alpha-2, C-terminal kinase domain (RPS6KA2, Homo sapiens, UniProt Q15349)", "effect on": "cell-free assay", "remaining binding [%]": 98}
{"target": "TGFBR1 (Homo sapiens, UniProt P36897)", "effect on": "cell-free assay", "remaining binding [%]": 78}
{"target": "CAMK2G (Homo sapiens, UniProt Q13555)", "effect on": "cell-free assay", "remaining binding [%]": 98}
{"target": "Ribosomal protein S6 kinase alpha-5, C-terminal kinase domain (RPS6KA5, Homo sapiens, UniProt O75582)", "effect on": "cell-free assay", "remaining binding [%]": 81}
{"target": "PRKACB (Homo sapiens, UniProt P22694)", "effect on": "cell-free assay", "remaining binding [%]": 100}
{"data": "Series 2", "target": "CCNE1, cyclin fold, Cln2 fusion (human)", "technique": "yeast growth competition, sequencing", "sample": "yeast", "notes": "strong parent motif", "baseline": "not given", "reading": "higher = stronger binding", "starting sequence": "viral docking peptide; CKVKRKLFGSENI"}
{"Substitution": "F8A", "normalised enrichment score": 0.38}
{"Substitution": "C1A", "normalised enrichment score": 5.3}
{"Substitution": "G9A", "normalised enrichment score": 6.4}
{"Substitution": "N12A", "normalised enrichment score": 4.99}
{"Substitution": "K2A", "normalised enrichment score": 5.43}
{"Substitution": "R5A", "normalised enrichment score": 0.324}
{"Substitution": "F8L", "normalised enrichment score": 0.0955}
{"Substitution": "R5K", "normalised enrichment score": 0.856}
{"data": "Series 3", "target": "HLA class I histocompatibility antigen, C alpha chain, allele C*04:01 (Homo sapiens, UniProt P10321)", "effect on": "peptide-MHC binding", "form": "peptide", "concentration": "concentration not given"}
{"Molecule": "VPRPRFSAL", "binding": "inactive"}
{"Molecule": "SYSTPALTL", "binding": "inactive"}
{"Molecule": "EVFFGLSRY", "binding": "inactive"}
{"Molecule": "FYPPVLQPI", "binding": "inactive"}
{"Molecule": "AEFPVGSTA", "binding": "inactive"}
{"Molecule": "SLMASSPTSI", "binding": "inactive"}
{"Molecule": "FTDNNELEF", "binding": "inactive"}
{"Molecule": "RQNAPFEPI", "binding": "inactive"}
{"data": "Mixed results", "ADRB1": "Beta-1 adrenergic receptor (ADRB1, Homo sapiens, UniProt P08588)", "sequence of UniProt P08588 (whole entry, looked up)": "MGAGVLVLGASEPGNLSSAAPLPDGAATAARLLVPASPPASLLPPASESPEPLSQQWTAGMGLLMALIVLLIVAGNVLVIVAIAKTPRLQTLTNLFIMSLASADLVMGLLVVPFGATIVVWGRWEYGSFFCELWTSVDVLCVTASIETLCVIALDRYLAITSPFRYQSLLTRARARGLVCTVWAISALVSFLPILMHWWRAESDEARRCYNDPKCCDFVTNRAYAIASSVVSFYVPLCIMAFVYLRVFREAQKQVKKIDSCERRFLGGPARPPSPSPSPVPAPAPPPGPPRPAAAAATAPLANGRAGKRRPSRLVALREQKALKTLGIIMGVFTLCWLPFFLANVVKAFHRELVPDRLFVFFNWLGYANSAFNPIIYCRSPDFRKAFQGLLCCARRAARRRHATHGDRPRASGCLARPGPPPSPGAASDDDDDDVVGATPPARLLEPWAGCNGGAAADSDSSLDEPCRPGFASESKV"}
{"Structure (SMILES)": "O=C1NCN(c2ccccc2)C12CCN(CC1COc3ccccc3O1)CC2 (stereo not drawn)", "tested on": "DNA polymerase theta, ATPase domain (POLQ, Homo sapiens, UniProt O75417)", "assay": "enzyme activity, inhibitor", "setting": "77 µM", "how to read": "baseline: untreated", "quantity": "remaining activity", "result": "95.2%"}
{"Structure (SMILES)": "CC(C)NCC(O)c1ccccc1Cl (stereo not drawn)", "tested on": "HaCaT", "setting": "100 µM, 60 h", "quantity": "viability", "result": "139%"}
{"Structure (SMILES)": "CC(C)[C@H]1C(=O)N2CCC[C@H]2[C@]2(O)O[C@](NC(=O)[C@@H]3C=C4c5cccc6[nH]cc(c56)C[C@H]4N(C)C3)(C(C)C)C(=O)N12", "tested on": "ADRB1", "assay": "antagonist", "quantity": "IC50", "result": "≥ 100 µM"}
{"Structure (SMILES)": "c1cncc([C@@H]2CCCN2)c1", "tested on": "Sarcocystis neurona", "assay": "parasite growth", "setting": "10 µM, 96 h", "quantity": "inhibition", "result": "-6.9%"}
{"Structure (SMILES)": "NCC1(CC(=O)O)CCCCC1", "tested on": "HaCaT", "setting": "100 µM, 60 h", "quantity": "viability", "result": "150%"}
{"Structure (SMILES)": "C[C@]12CC[C@H](O)CC1=CC[C@@H]1[C@@H]2CC[C@@]2(C)[C@H]1CC[C@]2(C)O", "tested on": "Sarcocystis neurona", "assay": "parasite growth", "setting": "10 µM, 96 h", "quantity": "inhibition", "result": "-6.8%"}
{"Structure (SMILES)": "COc1ccc(CC2c3cc(OC)c(OC)cc3CCN2C)cc1OC (racemic)", "tested on": "CAMK2A (Homo sapiens, UniProt Q9UQM7)", "assay": "enzyme activity, inhibitor", "setting": "10 µM", "quantity": "inhibition", "result": "-15%"}
{"Structure (SMILES)": "CC(C)[C@@]1(NC(=O)[C@H]2C[C@H]3c4cccc5[nH]cc(c45)C[C@@H]3N(C)C2)O[C@]2(O)[C@H]3CCCN3C(=O)CN2C1=O", "tested on": "ADRB1", "assay": "antagonist", "quantity": "IC50", "result": "≥ 100 µM"}
{"note": "Excerpt of the above (series 1):"}
{"target": "Tyrosine-protein kinase ABL1, non-phosphorylated (ABL1, Homo sapiens, UniProt P00519, H396P)", "effect on": "cell-free assay", "remaining binding [%]": 88}
{"target": "Ribosomal protein S6 kinase alpha-2, C-terminal kinase domain (RPS6KA2, Homo sapiens, UniProt Q15349)", "effect on": "cell-free assay", "remaining binding [%]": 98}
{"target": "STK17B (Homo sapiens, UniProt O94768)", "effect on": "cell-free assay", "remaining binding [%]": 84}
{"target": "TGFBR1 (Homo sapiens, UniProt P36897)", "effect on": "cell-free assay", "remaining binding [%]": 78}
